Measurements from different studies.
Each line is one published result; not all experiments were run side by side. ± gives the spread as reported.
Chain of UniProt P15056 (whole entry, looked up): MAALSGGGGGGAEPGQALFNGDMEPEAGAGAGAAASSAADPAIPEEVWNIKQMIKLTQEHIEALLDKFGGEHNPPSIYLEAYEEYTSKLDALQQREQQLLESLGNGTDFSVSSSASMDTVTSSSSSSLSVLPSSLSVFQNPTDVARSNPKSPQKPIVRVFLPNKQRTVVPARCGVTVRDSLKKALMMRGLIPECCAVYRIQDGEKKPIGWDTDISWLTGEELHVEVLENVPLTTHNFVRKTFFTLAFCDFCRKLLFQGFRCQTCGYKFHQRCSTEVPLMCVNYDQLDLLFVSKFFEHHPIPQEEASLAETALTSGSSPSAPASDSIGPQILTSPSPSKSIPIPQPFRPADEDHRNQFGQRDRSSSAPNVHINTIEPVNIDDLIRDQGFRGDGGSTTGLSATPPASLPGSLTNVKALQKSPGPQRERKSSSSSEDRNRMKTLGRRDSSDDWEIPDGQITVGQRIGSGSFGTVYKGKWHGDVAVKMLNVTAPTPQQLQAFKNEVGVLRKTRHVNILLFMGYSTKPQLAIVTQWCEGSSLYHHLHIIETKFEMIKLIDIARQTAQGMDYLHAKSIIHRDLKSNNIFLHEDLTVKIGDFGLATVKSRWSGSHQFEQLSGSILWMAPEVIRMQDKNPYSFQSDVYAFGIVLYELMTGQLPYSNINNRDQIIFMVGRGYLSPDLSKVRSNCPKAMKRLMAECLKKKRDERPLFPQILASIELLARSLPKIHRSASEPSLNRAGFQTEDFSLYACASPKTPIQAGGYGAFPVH
Chain of UniProt O14744 (whole entry, looked up): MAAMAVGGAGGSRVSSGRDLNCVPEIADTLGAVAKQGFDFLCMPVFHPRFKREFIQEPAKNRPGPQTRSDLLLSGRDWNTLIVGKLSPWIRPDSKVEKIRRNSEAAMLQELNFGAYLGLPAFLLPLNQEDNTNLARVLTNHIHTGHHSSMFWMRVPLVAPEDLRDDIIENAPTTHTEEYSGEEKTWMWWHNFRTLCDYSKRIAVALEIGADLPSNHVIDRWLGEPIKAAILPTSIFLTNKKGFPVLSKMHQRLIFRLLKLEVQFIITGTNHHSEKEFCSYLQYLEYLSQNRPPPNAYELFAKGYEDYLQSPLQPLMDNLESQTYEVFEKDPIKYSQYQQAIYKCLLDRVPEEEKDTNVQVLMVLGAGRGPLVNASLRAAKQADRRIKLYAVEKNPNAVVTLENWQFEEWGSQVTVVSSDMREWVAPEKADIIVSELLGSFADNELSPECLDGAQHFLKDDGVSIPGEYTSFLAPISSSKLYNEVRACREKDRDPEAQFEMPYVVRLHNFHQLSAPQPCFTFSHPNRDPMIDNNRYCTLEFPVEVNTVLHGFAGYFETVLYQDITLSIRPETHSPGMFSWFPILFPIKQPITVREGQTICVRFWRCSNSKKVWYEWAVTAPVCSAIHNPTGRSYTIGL
Chain of UniProt P28222 (whole entry, looked up): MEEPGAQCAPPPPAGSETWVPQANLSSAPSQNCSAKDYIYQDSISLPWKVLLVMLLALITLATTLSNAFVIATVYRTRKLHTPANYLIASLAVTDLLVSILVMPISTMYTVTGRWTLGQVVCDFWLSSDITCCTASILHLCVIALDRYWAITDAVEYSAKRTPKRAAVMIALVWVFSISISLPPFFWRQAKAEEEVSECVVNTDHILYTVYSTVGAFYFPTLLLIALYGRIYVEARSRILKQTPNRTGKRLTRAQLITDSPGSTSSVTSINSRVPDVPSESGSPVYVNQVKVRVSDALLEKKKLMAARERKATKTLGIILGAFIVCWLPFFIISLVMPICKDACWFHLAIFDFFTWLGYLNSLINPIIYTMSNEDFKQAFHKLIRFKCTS
Chain of UniProt P27448 (whole entry, looked up): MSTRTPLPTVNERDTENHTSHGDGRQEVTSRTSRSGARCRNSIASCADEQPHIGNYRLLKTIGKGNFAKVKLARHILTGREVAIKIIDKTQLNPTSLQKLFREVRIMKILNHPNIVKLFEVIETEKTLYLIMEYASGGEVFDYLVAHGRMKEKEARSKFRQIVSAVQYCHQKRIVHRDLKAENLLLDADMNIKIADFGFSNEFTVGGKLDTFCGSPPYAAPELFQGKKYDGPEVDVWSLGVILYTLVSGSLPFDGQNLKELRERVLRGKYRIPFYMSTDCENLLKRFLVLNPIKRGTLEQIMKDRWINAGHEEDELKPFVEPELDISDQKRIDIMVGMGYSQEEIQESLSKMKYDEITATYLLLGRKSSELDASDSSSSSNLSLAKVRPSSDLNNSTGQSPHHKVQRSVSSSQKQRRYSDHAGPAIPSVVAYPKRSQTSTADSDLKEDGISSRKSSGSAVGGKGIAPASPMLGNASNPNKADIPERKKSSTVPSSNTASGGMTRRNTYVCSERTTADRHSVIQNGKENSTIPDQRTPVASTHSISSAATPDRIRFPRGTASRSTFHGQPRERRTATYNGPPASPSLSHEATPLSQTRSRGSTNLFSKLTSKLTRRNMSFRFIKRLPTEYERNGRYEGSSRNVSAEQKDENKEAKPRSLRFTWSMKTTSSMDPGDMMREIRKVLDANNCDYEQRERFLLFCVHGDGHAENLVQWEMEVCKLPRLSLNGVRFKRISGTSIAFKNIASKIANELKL
Chain of UniProt Q5VSL9 (whole entry, looked up): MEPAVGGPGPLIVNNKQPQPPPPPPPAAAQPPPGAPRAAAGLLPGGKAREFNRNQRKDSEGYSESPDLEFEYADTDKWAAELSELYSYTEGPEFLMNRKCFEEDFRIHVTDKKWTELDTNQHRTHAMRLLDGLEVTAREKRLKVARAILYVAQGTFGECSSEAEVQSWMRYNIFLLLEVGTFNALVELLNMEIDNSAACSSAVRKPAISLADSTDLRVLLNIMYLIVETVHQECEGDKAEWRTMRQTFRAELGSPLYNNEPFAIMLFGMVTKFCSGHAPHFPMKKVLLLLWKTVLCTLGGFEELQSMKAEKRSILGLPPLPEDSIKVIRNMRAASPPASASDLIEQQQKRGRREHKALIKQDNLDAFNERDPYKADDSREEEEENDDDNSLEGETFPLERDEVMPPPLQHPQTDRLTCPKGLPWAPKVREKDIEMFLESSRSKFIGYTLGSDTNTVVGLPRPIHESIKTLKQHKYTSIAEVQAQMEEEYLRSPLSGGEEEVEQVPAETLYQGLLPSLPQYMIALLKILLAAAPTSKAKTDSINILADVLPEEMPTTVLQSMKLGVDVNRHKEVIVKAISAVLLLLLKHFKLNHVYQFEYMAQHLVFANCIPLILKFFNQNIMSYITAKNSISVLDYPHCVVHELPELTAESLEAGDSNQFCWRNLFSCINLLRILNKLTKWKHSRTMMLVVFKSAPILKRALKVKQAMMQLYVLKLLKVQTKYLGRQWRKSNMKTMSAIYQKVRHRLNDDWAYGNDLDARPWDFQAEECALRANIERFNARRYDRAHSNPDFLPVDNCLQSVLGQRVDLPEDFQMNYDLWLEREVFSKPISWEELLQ
Chain of UniProt P34969 (whole entry, looked up): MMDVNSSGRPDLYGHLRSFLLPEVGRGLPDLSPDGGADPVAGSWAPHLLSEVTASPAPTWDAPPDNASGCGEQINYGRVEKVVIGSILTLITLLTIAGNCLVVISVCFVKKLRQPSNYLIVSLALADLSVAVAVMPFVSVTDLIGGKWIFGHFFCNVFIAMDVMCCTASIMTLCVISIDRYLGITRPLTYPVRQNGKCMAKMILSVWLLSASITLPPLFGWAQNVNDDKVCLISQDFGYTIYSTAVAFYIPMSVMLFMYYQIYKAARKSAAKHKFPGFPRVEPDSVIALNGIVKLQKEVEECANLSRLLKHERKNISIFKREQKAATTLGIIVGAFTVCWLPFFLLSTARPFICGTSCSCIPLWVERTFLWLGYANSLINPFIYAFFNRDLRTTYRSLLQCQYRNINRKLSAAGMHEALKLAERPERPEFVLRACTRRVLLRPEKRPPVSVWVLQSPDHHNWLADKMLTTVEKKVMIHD
Chain of UniProt P41145 (whole entry, looked up): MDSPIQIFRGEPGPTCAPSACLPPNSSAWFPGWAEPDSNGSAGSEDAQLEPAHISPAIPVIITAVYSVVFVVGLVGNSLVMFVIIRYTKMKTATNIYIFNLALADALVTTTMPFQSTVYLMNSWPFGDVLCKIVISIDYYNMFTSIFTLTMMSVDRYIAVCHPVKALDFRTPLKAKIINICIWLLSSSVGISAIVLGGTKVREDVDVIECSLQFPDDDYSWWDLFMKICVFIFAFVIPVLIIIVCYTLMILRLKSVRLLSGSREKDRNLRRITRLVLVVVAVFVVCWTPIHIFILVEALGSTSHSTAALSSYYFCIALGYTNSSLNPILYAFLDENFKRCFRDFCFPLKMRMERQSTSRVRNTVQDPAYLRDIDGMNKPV
Chain of UniProt O42275 (whole entry, looked up): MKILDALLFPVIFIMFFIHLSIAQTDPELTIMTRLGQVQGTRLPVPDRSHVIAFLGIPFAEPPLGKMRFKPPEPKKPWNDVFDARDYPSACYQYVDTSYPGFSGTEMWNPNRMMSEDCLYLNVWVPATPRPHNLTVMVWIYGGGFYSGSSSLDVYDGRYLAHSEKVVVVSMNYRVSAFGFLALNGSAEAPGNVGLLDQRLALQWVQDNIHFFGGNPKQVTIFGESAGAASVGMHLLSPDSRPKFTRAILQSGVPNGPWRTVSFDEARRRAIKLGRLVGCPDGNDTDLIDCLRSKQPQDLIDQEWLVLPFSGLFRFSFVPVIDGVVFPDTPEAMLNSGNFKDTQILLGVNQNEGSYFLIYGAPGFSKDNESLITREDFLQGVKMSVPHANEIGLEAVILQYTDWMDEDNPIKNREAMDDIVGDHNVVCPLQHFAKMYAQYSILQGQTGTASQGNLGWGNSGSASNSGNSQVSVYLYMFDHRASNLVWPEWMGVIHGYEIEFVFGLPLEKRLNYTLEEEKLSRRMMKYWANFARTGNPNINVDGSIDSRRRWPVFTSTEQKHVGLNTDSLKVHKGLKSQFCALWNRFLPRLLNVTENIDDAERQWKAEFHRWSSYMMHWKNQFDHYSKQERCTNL

| SMILES | target or system | test | system | setting | scale | endpoint | value |
| --- | --- | --- | --- | --- | --- | --- | --- |
| CCc1nc2ccc(C(=O)NCCCN(C)C)cn2c1N(C)Cc1cccs1 | ache (Electrophorus electricus, UniProt O42275) | inhibitor | – | 5 µM | – | activity | active |
| Cc1ccc(/N=N/c2cccc([B-](F)(F)F)c2)cc1.[K+] | Chymotrypsinogen A (Bos taurus, UniProt P00766) | enzyme activity, inhibitor | – | together with: Suc-AAPF-AMC | relative to: Ki cis over Ki trans | switching factor | 11.9 ± 0.5 |
| COc1ccccc1-c1nc2sc3c(c2c(=O)o1)CCC3 | Genome polyprotein, 3C protease (rhinovirus B14, UniProt P03303) | enzyme activity, inhibitor, SAMDI mass spectrometry | human rhinovirus | 10-point dose response | – | Hill slope | 1.52 |
| COc1ccccc1-c1n[nH]c2nc(NC3CCN(C(=O)Cc4ccc(F)cc4F)CC3)ncc12 | – | bead binding, competition bead pull-down, item: LINJ.25.2230 | Leishmania donovani axenic amastigote extract | 10 µM | relative to: vehicle | relative abundance | 0.4 |
| C#CCCCCOc1ccc2c(c1)CCCN2C(=O)CCl | Striatin-interacting protein 1 (STRIP1, Homo sapiens, UniProt Q5VSL9) | MS-ABPP alkyne probe | Ramos cell lysate | – | relative to: high over low probe | cysteine reactivity ratio | 1.99 |
| N=C(N)c1ccc(-c2ccc(-c3ccc(C(=N)N)cc3)[se]2)cc1 | PRMT5 (Homo sapiens, UniProt O14744) | enzyme activity, inhibitor, radiometric | – | 20 µM | – | remaining activity | 69% |
| CC(C)(C)C(=O)OCOP(=O)(OCOC(=O)C(C)(C)C)C1CCCN(O)C1=O (stereo not shown) | NCI-H522 | – | – | – | – | GI50 | 308 nM |
| O=C1NC(=O)c2c1c1cc(F)c[n+]3c1c1c2c2cc(O)ccc2[n]1[Ru-4]312([N]=C=S)[S+]3CC[S+]1CC[S+]2CC3 (stereo not shown) | SRPK2 (Homo sapiens, UniProt P78362) | enzyme activity | – | 100 nM, human enzyme, together with: 10 µM ATP | relative to: untreated | remaining activity | 39% |
| Cc1sc2c(c1C)C(c1ccc(Cl)cc1)=NC(CC(=O)OC(C)(C)C)c1nnc(C)n1-2 (stereo not shown) | HTR7 (Homo sapiens, UniProt P34969) | ligand displacement, radioligand | – | 1 µM | – | inhibition | -12% |
| CN(C)[C@H]1C[C@@]23CC[C@@]4(O2)C(=CC[C@]2(C)[C@@H](c5ccc6ccncc6c5)CC[C@H]24)C=C3[C@@H](O)[C@@H]1O | MARK3 (Homo sapiens, UniProt P27448) | ATP probe labelling, inhibitor, KiNativ profiling | – | 1 µM | – | inhibition | 1% |
| CCCCCCCCCCN(O)C(=O)CCCCC[C@@H]1NC(=O)[C@H]2CCCN2C(=O)[C@H](Cc2ccccc2)NC(=O)[C@H](Cc2ccccc2)NC1=O | HDAC11 (Homo sapiens, UniProt Q96DB2) | inhibitor | – | – | relative to: Ki HDAC1 over Ki HDAC11 | selectivity ratio | 0.6 |
| O=C1NC2(CC2)COc2ncc(F)cc2[C@H]2COCCN2c2ccn3ncc1c3n2 | – | – | Sprague-Dawley rat, male, serum | oral, 2.5 mg/kg/day, 4 weeks daily, end of treatment | – | pancreatic amylase activity | 2040 ± 320 U/L |
| Nc1ccc(/C=C/C(=O)N2CCc3c(oc4c(-c5ccc(F)cc5)cc(-c5ccc(C(=O)N6CCC(F)(F)CC6)cn5)cc34)C2)cn1 | BRAF (Homo sapiens, UniProt P15056) | binding, competition with immobilised ligand | – | 1 µM | – | remaining binding | 100% |
| CS(C)(=O)=Nc1ccc(-c2ccc(-c3nc4cc(O[C@@H]5CO[C@H]6[C@@H]5OC[C@H]6O)[nH]c4cc3F)cc2)cc1 | Phosphatidylinositol 4,5-bisphosphate 3-kinase catalytic subunit alpha isoform, with p85 alpha (PIK3CA, Homo sapiens, UniProt P42336, H1047R) | kinase activity | – | 10 µM | – | inhibition | -1% |
| O=C(Cc1ccc(F)c(Cl)c1)N1CCN[C@@H]2COC[C@H](N3CCCC3)[C@H]21 (relative stereo) | OPRK1 (Homo sapiens, UniProt P41145) | – | – | concentration not given | – | loss of binding affinity | 4 to 8 fold |
| Cc1cc(Nc2nc(C[C@@]3(C(=O)O)CCN(Cc4cccc(Cl)c4F)[C@H](C)C3)cc(C)c2F)[nH]n1 | HTR1B (Homo sapiens, UniProt P28222) | agonist | – | 10 µM | – | activation | 2.85% |
